Measurements gathered from unrelated publications.
Lines come from different studies, so protocols differ. “And” joins repeats or separate records; there may be more than shown. ± gives the spread as reported.
ZNRF3: E3 ubiquitin-protein ligase ZNRF3 (ZNRF3, Homo sapiens, UniProt Q9ULT6)
UniProt Q9ULT6, sequence (whole entry, looked up): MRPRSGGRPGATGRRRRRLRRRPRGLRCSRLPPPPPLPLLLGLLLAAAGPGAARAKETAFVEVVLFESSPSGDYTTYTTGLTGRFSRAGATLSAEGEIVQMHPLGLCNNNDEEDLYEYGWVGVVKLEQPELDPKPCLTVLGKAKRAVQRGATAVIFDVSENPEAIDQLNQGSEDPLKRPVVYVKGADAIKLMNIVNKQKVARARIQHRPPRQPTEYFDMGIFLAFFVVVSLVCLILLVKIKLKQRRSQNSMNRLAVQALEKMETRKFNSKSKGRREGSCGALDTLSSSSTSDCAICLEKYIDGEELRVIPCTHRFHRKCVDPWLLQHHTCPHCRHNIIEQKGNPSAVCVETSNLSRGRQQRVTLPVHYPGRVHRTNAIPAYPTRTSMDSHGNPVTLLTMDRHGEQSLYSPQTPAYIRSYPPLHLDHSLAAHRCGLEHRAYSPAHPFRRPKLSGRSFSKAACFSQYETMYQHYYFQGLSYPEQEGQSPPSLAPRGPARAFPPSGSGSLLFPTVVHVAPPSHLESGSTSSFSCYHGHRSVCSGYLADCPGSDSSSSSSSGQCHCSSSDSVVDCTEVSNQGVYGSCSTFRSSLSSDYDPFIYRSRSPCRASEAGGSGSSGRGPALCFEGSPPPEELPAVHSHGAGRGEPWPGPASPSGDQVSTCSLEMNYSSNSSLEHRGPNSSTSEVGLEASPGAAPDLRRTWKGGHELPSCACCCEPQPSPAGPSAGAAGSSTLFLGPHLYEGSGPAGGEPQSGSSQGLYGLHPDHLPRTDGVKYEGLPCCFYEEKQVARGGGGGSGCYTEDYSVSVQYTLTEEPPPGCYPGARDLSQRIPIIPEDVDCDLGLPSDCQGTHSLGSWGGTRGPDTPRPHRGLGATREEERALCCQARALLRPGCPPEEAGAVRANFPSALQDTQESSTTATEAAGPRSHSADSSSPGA
CNR1: Cannabinoid receptor 1 (CNR1, Homo sapiens, UniProt P21554)
UniProt P21554, sequence (whole entry, looked up): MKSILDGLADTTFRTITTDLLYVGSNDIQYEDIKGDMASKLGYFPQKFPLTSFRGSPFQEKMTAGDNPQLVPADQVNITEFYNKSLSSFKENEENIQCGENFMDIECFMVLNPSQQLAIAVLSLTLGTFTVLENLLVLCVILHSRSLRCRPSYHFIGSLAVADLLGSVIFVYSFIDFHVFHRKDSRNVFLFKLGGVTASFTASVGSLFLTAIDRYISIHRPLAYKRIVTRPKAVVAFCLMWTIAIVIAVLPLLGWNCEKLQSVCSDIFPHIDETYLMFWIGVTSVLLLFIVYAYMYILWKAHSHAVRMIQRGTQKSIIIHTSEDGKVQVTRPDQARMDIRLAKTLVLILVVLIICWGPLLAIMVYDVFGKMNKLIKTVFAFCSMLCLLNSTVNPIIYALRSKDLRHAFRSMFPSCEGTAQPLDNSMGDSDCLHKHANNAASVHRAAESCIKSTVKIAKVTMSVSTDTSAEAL
UniProt P07148, sequence (whole entry, looked up): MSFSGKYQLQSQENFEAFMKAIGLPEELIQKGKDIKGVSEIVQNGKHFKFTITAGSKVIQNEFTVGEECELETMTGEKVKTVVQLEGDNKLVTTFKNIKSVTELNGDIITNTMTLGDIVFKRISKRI
UniProt P46098, sequence (whole entry, looked up): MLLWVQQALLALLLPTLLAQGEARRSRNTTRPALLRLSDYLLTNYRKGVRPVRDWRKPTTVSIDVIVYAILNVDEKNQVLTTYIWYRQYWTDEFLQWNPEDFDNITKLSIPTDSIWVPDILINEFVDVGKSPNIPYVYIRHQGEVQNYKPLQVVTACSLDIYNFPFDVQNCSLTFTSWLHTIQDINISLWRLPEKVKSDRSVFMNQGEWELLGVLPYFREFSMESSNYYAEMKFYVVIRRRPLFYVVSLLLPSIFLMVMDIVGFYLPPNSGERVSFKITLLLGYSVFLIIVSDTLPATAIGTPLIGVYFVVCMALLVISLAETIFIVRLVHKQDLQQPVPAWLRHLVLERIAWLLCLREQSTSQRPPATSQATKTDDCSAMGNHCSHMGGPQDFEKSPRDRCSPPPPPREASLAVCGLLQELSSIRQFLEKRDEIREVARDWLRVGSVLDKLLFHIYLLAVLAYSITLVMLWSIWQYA
UniProt P06111, sequence (whole entry, looked up): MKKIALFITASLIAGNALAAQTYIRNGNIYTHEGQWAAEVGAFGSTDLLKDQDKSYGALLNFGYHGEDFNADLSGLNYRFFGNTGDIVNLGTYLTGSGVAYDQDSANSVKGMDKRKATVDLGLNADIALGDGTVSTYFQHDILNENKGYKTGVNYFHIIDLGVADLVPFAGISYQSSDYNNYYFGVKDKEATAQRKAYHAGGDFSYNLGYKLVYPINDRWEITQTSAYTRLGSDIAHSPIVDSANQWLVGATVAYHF
UniProt Q9BYF1, sequence (whole entry, looked up): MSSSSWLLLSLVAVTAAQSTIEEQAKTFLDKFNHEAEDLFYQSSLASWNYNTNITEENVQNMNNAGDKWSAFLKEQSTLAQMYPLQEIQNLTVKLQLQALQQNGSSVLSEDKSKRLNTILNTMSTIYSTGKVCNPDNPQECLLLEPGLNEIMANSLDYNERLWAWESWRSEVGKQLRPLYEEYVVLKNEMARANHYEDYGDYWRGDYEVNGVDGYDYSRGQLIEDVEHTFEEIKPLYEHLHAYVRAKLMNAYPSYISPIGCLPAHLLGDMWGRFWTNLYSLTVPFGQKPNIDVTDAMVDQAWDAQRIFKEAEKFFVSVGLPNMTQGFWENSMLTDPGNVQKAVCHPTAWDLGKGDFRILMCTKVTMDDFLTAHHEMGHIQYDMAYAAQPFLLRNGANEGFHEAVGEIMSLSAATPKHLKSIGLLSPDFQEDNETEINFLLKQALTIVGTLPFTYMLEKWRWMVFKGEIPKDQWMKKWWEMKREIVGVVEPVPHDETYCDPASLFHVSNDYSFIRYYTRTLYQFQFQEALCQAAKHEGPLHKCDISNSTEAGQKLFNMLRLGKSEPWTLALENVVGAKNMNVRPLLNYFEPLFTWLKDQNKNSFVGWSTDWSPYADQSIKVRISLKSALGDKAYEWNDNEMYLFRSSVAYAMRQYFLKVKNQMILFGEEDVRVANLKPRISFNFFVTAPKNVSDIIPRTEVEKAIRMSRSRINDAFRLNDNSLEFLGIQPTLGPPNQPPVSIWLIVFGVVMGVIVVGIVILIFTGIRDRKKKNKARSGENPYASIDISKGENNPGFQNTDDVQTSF
UniProt P40337, sequence (whole entry, looked up): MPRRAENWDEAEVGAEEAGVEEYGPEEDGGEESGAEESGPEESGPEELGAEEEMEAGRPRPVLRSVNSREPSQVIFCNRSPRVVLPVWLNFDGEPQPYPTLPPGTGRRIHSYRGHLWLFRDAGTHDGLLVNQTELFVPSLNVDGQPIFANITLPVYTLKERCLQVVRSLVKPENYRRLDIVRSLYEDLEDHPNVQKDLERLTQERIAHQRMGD
UniProt Q00987, sequence (whole entry, looked up): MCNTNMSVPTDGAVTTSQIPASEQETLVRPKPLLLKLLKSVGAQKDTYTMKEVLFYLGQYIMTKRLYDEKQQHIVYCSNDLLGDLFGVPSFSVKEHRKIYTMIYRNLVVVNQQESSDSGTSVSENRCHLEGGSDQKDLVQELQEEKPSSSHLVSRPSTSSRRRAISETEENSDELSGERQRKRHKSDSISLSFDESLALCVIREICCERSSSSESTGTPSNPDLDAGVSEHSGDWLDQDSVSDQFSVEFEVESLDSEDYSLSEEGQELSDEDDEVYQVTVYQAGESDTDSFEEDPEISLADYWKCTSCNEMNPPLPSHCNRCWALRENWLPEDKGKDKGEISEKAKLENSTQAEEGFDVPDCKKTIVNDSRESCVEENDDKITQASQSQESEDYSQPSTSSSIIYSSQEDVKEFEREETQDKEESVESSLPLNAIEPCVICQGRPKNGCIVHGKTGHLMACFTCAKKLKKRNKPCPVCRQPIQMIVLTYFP
UniProt P23975, sequence (whole entry, looked up): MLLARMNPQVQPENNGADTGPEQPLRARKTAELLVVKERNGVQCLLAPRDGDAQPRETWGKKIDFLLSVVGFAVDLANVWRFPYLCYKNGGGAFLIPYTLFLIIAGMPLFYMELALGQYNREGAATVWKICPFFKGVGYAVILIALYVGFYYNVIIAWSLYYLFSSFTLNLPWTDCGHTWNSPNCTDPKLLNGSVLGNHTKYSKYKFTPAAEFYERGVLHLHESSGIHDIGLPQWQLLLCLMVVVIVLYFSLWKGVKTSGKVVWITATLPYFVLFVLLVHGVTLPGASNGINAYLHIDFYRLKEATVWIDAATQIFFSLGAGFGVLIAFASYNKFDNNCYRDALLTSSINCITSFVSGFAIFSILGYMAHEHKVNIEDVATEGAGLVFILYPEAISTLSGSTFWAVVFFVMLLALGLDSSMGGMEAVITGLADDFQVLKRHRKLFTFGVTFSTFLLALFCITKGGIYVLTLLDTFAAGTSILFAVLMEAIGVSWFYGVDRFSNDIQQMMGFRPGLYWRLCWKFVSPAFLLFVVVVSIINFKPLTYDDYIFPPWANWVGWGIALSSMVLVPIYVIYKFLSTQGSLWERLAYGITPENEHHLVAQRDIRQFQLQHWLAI

SMILES	target	assay	test system	setting	quantity	value
CC[C@H](C)[C@@H]1NC(=O)[C@@H]2CCCN2C(=O)[C@H](CCCNC(=N)N)NC(=O)[C@H](CCC(=O)O)NC(=O)[C@@H]2CSSC[C@@H]3NC(=O)[C@H](CCCCN)NC(=O)[C@H](CCCCN)NC(=O)[C@H](CC(N)=O)NC(=O)[C@H](CC(C)C)NC(=O)[C@H](CCCNC(=N)N)NC(=O)[C@H](CC(N)=O)NC(=O)[C@@H](NC(=O)CNC(=O)[C@H](CO)NC(=O)CNC(=O)[C@H](CO)NC(=O)CNC(=O)[C@H](CO)NC(=O)CNC(=O)[C@H](CC(C)C)NC(=O)[C@H](CCCCN)NC(=O)[C@H](CO)NC(=O)[C@H](CCCNC(=N)N)NC(=O)CN)CSSC[C@H](NC(=O)[C@H](CSSC[C@@H](C(=O)N[C@@H](CCCNC(=N)N)C(=O)N4CCC[C@H]4C(=O)N[C@@H](CC(=O)O)C(=O)N[C@H](C(=O)NCC(=O)N4CCC[C@H]4C(=O)O)C(C)C)NC(=O)[C@H](Cc4ccc(O)cc4)NC(=O)[C@H](CCSC)NC(=O)[C@H](Cc4ccccc4)NC(=O)[C@H](CCCCN)NC(=O)[C@H](Cc4c[nH]c5ccccc45)NC(=O)CNC1=O)NC(=O)[C@H](CC(=O)O)NC(=O)[C@H](C)NC(=O)[C@H](CC(=O)O)NC(=O)[C@H](CO)NC(=O)[C@H](CC(N)=O)NC3=O)C(=O)N[C@@H](C)C(=O)N[C@@H](CC(N)=O)C(=O)N[C@@H](CCCCN)C(=O)N[C@@H](CCC(=O)O)C(=O)N[C@@H](CCCCN)C(=O)N2	ZNRF3	binding	–	pH 7.4	Kd	79 ± 2.8 nM
CCCCCc1cc(O)c2c(c1)OC(C)(C)[C@@H]1CCC(CO)=C[C@@H]21	FABP1 (Homo sapiens, UniProt P07148)	binding, DAUDA displacement	–	added: DAUDA 0.5 µM	Kd	860 nM and 900 nM
NCCc1ccc(Oc2ccc(O)cc2)c(I)c1	TAAR1 (Homo sapiens, UniProt Q96RJ0)	cAMP, agonist, luciferase	–	–	EC50	741 nM
CCCCCCc1ccc(Oc2ccccc2Br)c(O)c1	inhA (Mycobacterium tuberculosis, UniProt P9WGR1)	inhibitor, progress curve analysis	–	20 °C, initial EI complex	Ki	120 ± 1 nM
CC(C)C[C@H](NC(=O)[C@@H]1CCCN1C(=O)[C@H](Cc1c[nH]c2ccccc12)NC(=O)[C@H](Cc1ccc(O)cc1)NC(=O)[C@@H](N)CO)C(=O)N[C@@H](CC(N)=O)C(=O)N[C@@H](CC(=O)O)C(=O)N[C@@H](Cc1ccc(O)cc1)C(=O)NCC(=O)N[C@@H](Cc1ccccc1)C(=O)N[C@@H](Cc1ccc(O)cc1)C(=O)N[C@H](C(N)=O)[C@@H](C)O	ACE2 (Homo sapiens, UniProt Q9BYF1)	–	–	–	Kd	430000 nM
Fc1ccccc1CCNCc1cccc(Cl)c1Cl	SLC6A2 (Homo sapiens, UniProt P23975)	ligand displacement in cells, radioligand	–	–	Ki	841 nM
CC12CCC3C(CC=C4CC(O)CCC43C)C1CCC2=O (centres unmarked)	Steroid Delta-isomerase (Pseudomonas putida, UniProt P07445, D40N/Y119F/Y32F/Y57F)	–	–	–	Kd	3200 ± 300 nM
CC(=O)N(Cc1ccccc1)[C@@H](C)C(=O)N(C)[C@@H](C)C(=O)N(Cc1c[nH]c2cc(Cl)ccc12)[C@@H](C)C(=O)N(C)[C@@H](C)C(=O)N(CCC(C)(C)C)[C@@H](C)C(=O)N1CCNCC1	E3 ubiquitin-protein ligase Mdm2, N-terminal domain 17-125 (MDM2, Homo sapiens, UniProt Q00987)	binding, fluorescence anisotropy	PBS with Tween	25 °C, fluorescein-labelled peptoid, 10 nM	Kd	8.6 nM
CC1=CC(C)=[N+]2C1=Cc1ccc(CCC(=O)NCCOCCOCCOCCOCC(=O)N[C@H](C(=O)N3C[C@H](O)C[C@H]3C(=O)NCc3ccc(-c4scnc4C)cc3)C(C)(C)C)n1[B-]2(F)F	von Hippel-Lindau disease tumor suppressor, with elongin B/C (VHL, Homo sapiens, UniProt P40337)	binding, TR-FRET	–	240 min, added: BODIPY FL VH032	Kd	2.98 nM
CC(=O)Oc1cccc2[nH]cc(CC[N+](C)(C)C)c12	HTR3A (Homo sapiens, UniProt P46098)	ligand displacement, radioligand	–	cell membranes	Ki	> 10000 nM
CC[C@H](C)[C@H](NC(=O)[C@H](CO)NC(=O)[C@H](Cc1ccc(O)cc1)NC(=O)[C@H](CC(=O)O)NC(=O)[C@H](CO)NC(=O)[C@@H](NC(=O)[C@H](Cc1ccccc1)NC(=O)[C@@H](NC(=O)CNC(=O)[C@@H]1CCCN1C(=O)[C@H](C)NC(=O)[C@@H](N)Cc1ccc(O)cc1)[C@@H](C)O)[C@@H](C)CC)C(=O)N[C@@H](C)C(=O)N[C@@H](CCSC)C(=O)N[C@@H](CC(=O)O)C(=O)N[C@@H](CCCCN)C(=O)N[C@H](C(=O)N[C@@H](CCCNC(=N)N)C(=O)N[C@@H](CCC(N)=O)C(=O)N[C@@H](CCC(N)=O)C(=O)N[C@@H](CC(=O)O)C(=O)N[C@@H](Cc1ccccc1)C(=O)N[C@H](C(=O)N[C@@H](CC(N)=O)C(=O)N[C@@H](Cc1c[nH]c2ccccc12)C(=O)N[C@@H](CC(C)C)C(=O)N[C@@H](CC(C)C)C(=O)N[C@@H](C)C(=O)N[C@@H](CCC(N)=O)C(=O)N[C@@H](CCCNC(=N)N)C(=O)NCC(=O)N[C@@H](CCCCN)C(=O)N[C@@H](CCCCN)C(=O)N[C@@H](CO)C(=O)N[C@@H](CC(=O)O)C(=O)N[C@@H](Cc1c[nH]c2ccccc12)C(=O)N[C@@H](CCCCN)C(=O)N[C@@H](Cc1c[nH]cn1)C(=O)N[C@@H](CC(N)=O)C(=O)N[C@H](C(=O)N[C@H](C(=O)N[C@@H](CCC(N)=O)C(=O)O)[C@@H](C)O)[C@@H](C)CC)C(C)C)[C@@H](C)CC	Gastric inhibitory polypeptide receptor (Mus musculus, UniProt Q0P543)	agonist	–	–	EC50	29 nM
CCCCCn1cc(C(=O)c2ccc3ccccc3c2)c2ccccc21	CNR1	β-arrestin recruitment, agonist, BRET	–	–	EC50	372 nM
O=C(CCCN1C(=O)[C@H](c2ccccc2)Oc2cccnc21)NCCCN1CCc2ccccc2C1	Outer membrane protein OmpV (ompV, Vibrio cholerae serotype O1, UniProt P06111)	–	–	–	Kd	325 nM
CSCC[C@@H](C=O)NC(=O)[C@H](CC(C)C)NC(=O)[C@H](CC(C)C)NC(C)=O	Replicase polyprotein 1ab, main protease (Human coronavirus OC43, UniProt P0C6X6)	enzyme activity, inhibitor	–	–	Ki	230 nM
Cc1cc(O)cc(-c2nc(Nc3cc(C(F)(F)F)cc(C(F)(F)F)c3)ncc2-c2ccnc(-c3cccnc3)c2)c1	SRC (Homo sapiens, UniProt P12931)	biochemical	–	–	EC50	> 100000 nM
CC1(C)OC2OC(C(CCO)NCCCNC(CCO)C3OC4OC(C)(C)OC4C3OCc3ccccc3)C(OCc3ccccc3)C2O1 (centres unmarked)	DNA ligase A (Mycobacterium tuberculosis, UniProt P9WNV1)	enzyme activity, inhibitor	–	–	Ki	72800 nM
CC[C@H](C)[C@@H]1NC(=O)[C@@H]2CCCN2C(=O)[C@H](CCCNC(=N)N)NC(=O)[C@H](CCC(=O)O)NC(=O)[C@@H]2CSSC[C@@H]3NC(=O)[C@H](CCCCN)NC(=O)[C@H](CCCCN)NC(=O)[C@H](CC(N)=O)NC(=O)[C@H](CC(C)C)NC(=O)[C@H](CCCNC(=N)N)NC(=O)[C@H](CC(N)=O)NC(=O)[C@@H](NC(=O)CN)CSSC[C@H](NC(=O)[C@H](CSSC[C@@H](C(=O)N[C@@H](CCCNC(=N)N)C(=O)N4CCC[C@H]4C(=O)N[C@@H](CC(=O)O)C(=O)N[C@H](C(=O)NCC(=O)N4CCC[C@H]4C(=O)O)C(C)C)NC(=O)[C@H](Cc4ccc(O)cc4)NC(=O)[C@H](CCSC)NC(=O)[C@H](Cc4ccc(N=[N+]=[N-])cc4)NC(=O)[C@H](CCCCN)NC(=O)[C@H](Cc4c[nH]c5ccccc45)NC(=O)CNC1=O)NC(=O)[C@H](CC(=O)O)NC(=O)[C@H](C)NC(=O)[C@H](CC(=O)O)NC(=O)[C@H](CO)NC(=O)[C@H](CC(N)=O)NC3=O)C(=O)N[C@@H](C)C(=O)N[C@@H](CC(N)=O)C(=O)N[C@@H](CCCCN)C(=O)N[C@@H](CCC(=O)O)C(=O)N[C@@H](CCCCN)C(=O)N2	ZNRF3	binding	–	pH 7.4	Kd	326 ± 19 nM
COc1cc(N2CCN(C)CC2)ccc1Nc1ncc2c(n1)N(C1CCC1)C(=O)N(c1c(C)cccc1C)C2	SIK3 (Homo sapiens, UniProt Q9Y2K2)	enzyme activity, inhibitor	–	–	IC50	> 20 nM
CCCCCn1cc(C(=O)c2cccc3c2CC(C)(C)C3)c2ccccc21	CNR1	G protein activation, agonist, BRET	–	–	EC50	69.2 nM
C/C=C(\N)C(=O)CCCCC	cqsS (Vibrio cholerae serotype O1, UniProt Q9KM66)	bioluminescence, agonist	Vibrio cholerae	–	EC50	590 nM
